Assay results of several laboratories.
Compare with care: the assays were run in different laboratories. ± gives the spread as reported.

N=C(N)NCCC[C@@H]1NC(=O)[C@H](CCCCNC(=O)CCOCCOCCOCCOCCNC(=O)CC[C@H](NC(=O)CCOCCOCCOCCOCCNC(=O)c2ccc(NN)nc2)C(=O)NCCOCCOCCOCCOCCC(=O)NCCCC[C@@H]2NC(=O)[C@@H](Cc3ccccc3)NC(=O)[C@H](CC(=O)O)NC(=O)CNC(=O)[C@H](CCCNC(=N)N)NC2=O)NC(=O)[C@@H](Cc2ccccc2)NC(=O)[C@H](CC(=O)O)NC(=O)CNC1=O [technetium-99m labelled]
tissue uptake (female athymic nude mice, U-87 MG glioma xenograft, kidney; intravenous, 2.5 µCi, 60 min): 8.22 ± 1.99 %ID/g

N=C(N)NCCC[C@@H]1NC(=O)[C@H](CCCCNC(=O)CC[C@H](NC(=O)CCOCCOCCOCCOCCNC(=O)CC[C@H](NC(=O)CN2CCN(CC(=O)O)CCN(CC(=O)O)CCN(CC(=O)O)CC2)C(=O)NCCOCCOCCOCCOCCC(=O)N[C@@H](CCC(=O)NCCCC[C@@H]2NC(=O)[C@@H](Cc3ccccc3)NC(=O)[C@H](CC(=O)O)NC(=O)CNC(=O)[C@H](CCCNC(=N)N)NC2=O)C(=O)NCCCC[C@@H]2NC(=O)[C@@H](Cc3ccccc3)NC(=O)[C@H](CC(=O)O)NC(=O)CNC(=O)[C@H](CCCNC(=N)N)NC2=O)C(=O)NCCCC[C@@H]2NC(=O)[C@@H](Cc3ccccc3)NC(=O)[C@H](CC(=O)O)NC(=O)CNC(=O)[C@H](CCCNC(=N)N)NC2=O)NC(=O)[C@@H](Cc2ccccc2)NC(=O)[C@H](CC(=O)O)NC(=O)CNC1=O [indium-111 labelled]
tissue uptake (female athymic nude mice, liver; intravenous, 3 µCi, 24 h, U-87 MG glioma xenograft): 1.56 ± 0.37 %ID/g

N=C(N)NCCC[C@H](NC(=O)[C@H](CCCCN)NC(=O)[C@H](CCC(N)=O)NC(=O)CCOCCOCCOCCNC(=O)CN1CCN(CC(=O)O)CCN(CC(=O)O)CCN(CC(=O)O)CC1)C(=O)N[C@@H](CCCCN)C(=O)N[C@@H](CCCNC(=N)N)C(=O)N[C@@H](CCCCN)C(=O)N[C@@H](CCCCN)C(=O)N[C@@H](CO)C(=O)N[C@@H](CCCNC(=N)N)C(=O)N[C@@H](Cc1ccc(O)cc1)C(=O)N[C@@H](CCCCN)C(=O)N[C@@H](CO)C(=O)O [copper-64 labelled]
tissue uptake (male C57BL/6 mice, B16-F10 tumour, bone; intravenous, 60 min): 1.78 ± 0.11 %ID/g

N=C(N)NCCC[C@@H]1NC(=O)[C@H](CCCCNC(=O)CCOCCOCCOCCOCCNC(=O)CC[C@H](NC(=O)[C@H](CCCCNC(=O)c2ccc(NN)nc2)NC(=O)c2ccc(NN)nc2)C(=O)NCCOCCOCCOCCOCCC(=O)NCCCC[C@@H]2NC(=O)[C@@H](Cc3ccccc3)NC(=O)[C@H](CC(=O)O)NC(=O)CNC(=O)[C@H](CCCNC(=N)N)NC2=O)NC(=O)[C@@H](Cc2ccccc2)NC(=O)[C@H](CC(=O)O)NC(=O)CNC1=O [technetium-99m labelled]
tissue uptake (female athymic nude mice, lungs; intravenous, 0.1 MBq, 1 h, U-87 MG glioma xenograft): 2.93 ± 0.65 %ID/g

CSCC[C@H](NC(=O)[C@H](CC(=O)O)NC(=O)[C@H](CO)NC(=O)[C@H](Cc1c[nH]cn1)NC(=O)[C@H](Cc1c[nH]c2ccccc12)NC(=O)CN1CCN(CC(=O)O)CCN(CC(=O)O)CCN(CC(=O)O)CC1)C(=O)N[C@@H](CCC(=O)O)C(=O)N[C@@H](Cc1c[nH]c2ccccc12)C(=O)N[C@@H](Cc1c[nH]c2ccccc12)C(=O)N[C@@H](Cc1ccc(O)cc1)C(=O)N[C@@H](CC(C)C)C(=O)N[C@@H](CC(C)C)C(=O)NCC(=O)O [copper-64 labelled]
tissue uptake (gamma counting; nude mice bearing BGC-823 tumours, BGC-823 tumour; intravenous, 0.74 MBq (0.02 nmol), 4 h): 0.55 %ID/g

CCCC[C@H](NC(=O)[C@H](Cc1cccs1)NC(=O)[C@H](Cc1c[nH]cn1)NC(=O)CCNC(=O)[C@@H](NC(=O)[C@H](C)NC(=O)[C@H](Cc1c[nH]c2ccccc12)NC(=O)[C@H](CCC(N)=O)NC(=O)[C@H](Cc1cccs1)NC(=O)CN1CCC(NC(=O)CN(CCN(CCN(CC(=O)O)CC(=O)O)CC(=O)O)CC(=O)O)CC1)C(C)C)C(N)=O [indium-111 labelled]
tissue uptake (male Swiss nu/nu mice, PC-3 tumour, kidney; intravenous, 10 pmol, 1 h): 2 ± 0.3 %ID/g

N=C(N)NCCC[C@@H]1NC(=O)[C@H](CCCCNC(=O)CCOCCOCCOCCOCCNC(=O)CC[C@H](NC(=O)CCOCCOCCOCCOCCNC(=O)[C@H](CCCCNC(=O)c2ccc(NN)nc2)NC(=O)c2ccc(NN)nc2)C(=O)NCCOCCOCCOCCOCCC(=O)NCCCC[C@@H]2NC(=O)[C@@H](Cc3ccccc3)NC(=O)[C@H](CC(=O)O)NC(=O)CNC(=O)[C@H](CCCNC(=N)N)NC2=O)NC(=O)[C@@H](Cc2ccccc2)NC(=O)[C@H](CC(=O)O)NC(=O)CNC1=O [technetium-99m labelled]
tissue uptake (female athymic nude mice, muscle; intravenous, 0.1 MBq, 1 h, U-87 MG glioma xenograft): 0.85 ± 0.11 %ID/g

CC(C)C[C@H](NC(=O)[C@H](Cc1ccc(O)cc1)NC(=O)[C@@H](CCCNC(=N)N)NC(=O)[C@@H](CO)NC(=O)[C@H](Cc1ccccc1)NC(=O)[C@H](CC1CCCCC1)NC(=O)[C@H](CC(=O)O)NC(=O)CCC(C(=O)O)N1CCCN2CCN(CCCN(CC(=O)O)CC2)CC1)C(=O)N[C@@H](Cc1c[nH]c2ccccc12)C(=O)N[C@@H](CO)C(=O)O (stereo partly drawn) [copper-64 labelled]
tissue uptake (female NMRI nude mice, lung; 22 h p.i.): 2 ± 0.8 %ID/g

CSCC[C@H](NC(=O)[C@H](CC(C)C)NC(=O)[C@H](Cc1c[nH]cn1)NC(=O)CNC(=O)[C@@H](NC(=O)[C@H](C)NC(=O)[C@H](Cc1c[nH]c2ccccc12)NC(=O)[C@H](CCC(N)=O)NC(=O)CNC(=O)[C@H](CO)NC(=O)CNC(=O)CCCCCCCNC(=O)CCC(=O)Nc1ccc(CNC23CNCCNCC(N)(CNCCNC2)CNCCNC3)cc1)C(C)C)C(N)=O [copper-64 labelled]
tissue uptake (female SCID mice, PC-3 xenograft, liver; intravenous, 0.6 MBq, 1 h): 5.1 %ID/g

N=C(N)NCCC[C@@H]1NC(=O)[C@H](CCCCNC(=O)CCOCCOCCOCCOCCNC(=O)CC[C@H](NC(=O)CCOCCOCCOCCOCCNC(=O)CC[C@H](NC(=O)CN2CCN(CC(=O)O)CCN(CC(=O)O)CCN(CC(=O)O)CC2)C(=O)NCCOCCOCCOCCOCCC(=O)N[C@@H](CCC(=O)NCCOCCOCCOCCOCCC(=O)NCCCC[C@@H]2NC(=O)[C@@H](Cc3ccccc3)NC(=O)[C@H](CC(=O)O)NC(=O)CNC(=O)[C@H](CCCNC(=N)N)NC2=O)C(=O)NCCOCCOCCOCCOCCC(=O)NCCCC[C@@H]2NC(=O)[C@@H](Cc3ccccc3)NC(=O)[C@H](CC(=O)O)NC(=O)CNC(=O)[C@H](CCCNC(=N)N)NC2=O)C(=O)NCCOCCOCCOCCOCCC(=O)NCCCC[C@@H]2NC(=O)[C@@H](Cc3ccccc3)NC(=O)[C@H](CC(=O)O)NC(=O)CNC(=O)[C@H](CCCNC(=N)N)NC2=O)NC(=O)[C@@H](Cc2ccccc2)NC(=O)[C@H](CC(=O)O)NC(=O)CNC1=O [indium-111 labelled]
tissue uptake (female athymic nude mice, eyes; intravenous, 3 µCi, 0.5 h, U-87 MG glioma xenograft): 2.78 ± 2.01 %ID/g

N=C(N)NCCC[C@@H]1NC(=O)[C@H](CC(=O)NC23CNCCNCC(N)(CNCCNC2)CNCCNC3)NC(=O)[C@@H](Cc2ccccc2)NC(=O)[C@H](CC(=O)O)NC(=O)CNC1=O [copper-64 labelled]
tissue uptake (male nude tumour-bearing mice, kidney; iv, 10 µCi, 2 h): 3.78 ± 0.29 %ID/g

N=C(N)NCCC[C@@H]1NC(=O)[C@H](CCCCNC(=O)CC[C@H](NC(=O)CCOCCOCCOCCOCCNC(=O)CN2CCN(CC(=O)O)CCN(CC(=O)O)CCN(CC(=O)O)CC2)C(=O)NCCCC[C@@H]2NC(=O)[C@@H](Cc3ccccc3)NC(=O)[C@H](CC(=O)O)NC(=O)CNC(=O)[C@H](CCCNC(=N)N)NC2=O)NC(=O)[C@@H](Cc2ccccc2)NC(=O)[C@H](CC(=O)O)NC(=O)CNC1=O [indium-111 labelled]
tissue uptake (female athymic nude mice, eyes; intravenous, 3 µCi, 24 h, U-87 MG glioma xenograft): 0.39 ± 0.12 %ID/g

CSCC[C@H](NC(=O)[C@H](CC(C)C)NC(=O)[C@H](Cc1c[nH]cn1)NC(=O)CNC(=O)[C@@H](NC(=O)[C@H](C)NC(=O)[C@H](Cc1c[nH]c2ccccc12)NC(=O)[C@H](CCC(N)=O)NC(=O)CCCCCCCNC(=O)CCC(=O)Nc1ccc(CNC23CNCCNCC(N)(CNCCNC2)CNCCNC3)cc1)C(C)C)C(N)=O [copper-64 labelled]
tissue uptake (female SCID mice, PC-3 xenograft, bone; intravenous, 0.6 MBq, 24 h): 0.469 ± 0.025 %ID/g

CSCC[C@H](NC(=O)[C@H](CC(=O)O)NC(=O)[C@H](CO)NC(=O)[C@H](Cc1c[nH]cn1)NC(=O)[C@H](Cc1c[nH]c2ccccc12)NC(=O)CN1CCN(CC(=O)O)CCN(CC(=O)O)CCN(CC(=O)O)CC1)C(=O)N[C@@H](CCC(=O)O)C(=O)N[C@@H](Cc1c[nH]c2ccccc12)C(=O)N[C@@H](Cc1c[nH]c2ccccc12)C(=O)N[C@@H](Cc1ccc(O)cc1)C(=O)N[C@@H](CC(C)C)C(=O)N[C@@H](CC(C)C)C(=O)NCC(=O)N[C@@H](CCCCNC(=O)COCCOCCNC(=O)CCN1C(=O)C=CC1=O)C(=O)O [copper-64 labelled]
tissue uptake (gamma counting; nude mice bearing BGC-823 tumours, blood; intravenous, 0.74 MBq (0.02 nmol), 4 h): 6.5 %ID/g

N=C(N)NCCC[C@@H]1NC(=O)[C@H](CCCCNC(=O)CNC(=O)CNC(=O)CNC(=O)CC[C@H](NC(=O)CCOCCOCCOCCOCCNC(=O)CC[C@H](NC(=O)CN2CCN(CC(=O)O)CCN(CC(=O)O)CCN(CC(=O)O)CC2)C(=O)NCCOCCOCCOCCOCCC(=O)N[C@@H](CCC(=O)NCC(=O)NCC(=O)NCC(=O)NCCCC[C@@H]2NC(=O)[C@@H](Cc3ccccc3)NC(=O)[C@H](CC(=O)O)NC(=O)CNC(=O)[C@H](CCCNC(=N)N)NC2=O)C(=O)NCC(=O)NCC(=O)NCC(=O)NCCCC[C@@H]2NC(=O)[C@@H](Cc3ccccc3)NC(=O)[C@H](CC(=O)O)NC(=O)CNC(=O)[C@H](CCCNC(=N)N)NC2=O)C(=O)NCC(=O)NCC(=O)NCC(=O)NCCCC[C@@H]2NC(=O)[C@@H](Cc3ccccc3)NC(=O)[C@H](CC(=O)O)NC(=O)CNC(=O)[C@H](CCCNC(=N)N)NC2=O)NC(=O)[C@@H](Cc2ccccc2)NC(=O)[C@H](CC(=O)O)NC(=O)CNC1=O [indium-111 labelled]
tissue uptake (female athymic nude mice, liver; intravenous, 3 µCi, 24 h, U-87 MG glioma xenograft): 0.91 ± 0.08 %ID/g

A few entries again:
N=C(N)NCCC[C@@H]1NC(=O)[C@H](CCCCNC(=O)CCOCCOCCOCCOCCNC(=O)CC[C@H](NC(=O)CCOCCOCCOCCOCCNC(=O)c2ccc(NN)nc2)C(=O)NCCOCCOCCOCCOCCC(=O)NCCCC[C@@H]2NC(=O)[C@@H](Cc3ccccc3)NC(=O)[C@H](CC(=O)O)NC(=O)CNC(=O)[C@H](CCCNC(=N)N)NC2=O)NC(=O)[C@@H](Cc2ccccc2)NC(=O)[C@H](CC(=O)O)NC(=O)CNC1=O [technetium-99m labelled]
tissue uptake (female athymic nude mice, U-87 MG glioma xenograft, kidney; intravenous, 2.5 µCi, 60 min): 8.22 ± 1.99 %ID/g

N=C(N)NCCC[C@@H]1NC(=O)[C@H](CCCCNC(=O)CC[C@H](NC(=O)CCOCCOCCOCCOCCNC(=O)CC[C@H](NC(=O)CN2CCN(CC(=O)O)CCN(CC(=O)O)CCN(CC(=O)O)CC2)C(=O)NCCOCCOCCOCCOCCC(=O)N[C@@H](CCC(=O)NCCCC[C@@H]2NC(=O)[C@@H](Cc3ccccc3)NC(=O)[C@H](CC(=O)O)NC(=O)CNC(=O)[C@H](CCCNC(=N)N)NC2=O)C(=O)NCCCC[C@@H]2NC(=O)[C@@H](Cc3ccccc3)NC(=O)[C@H](CC(=O)O)NC(=O)CNC(=O)[C@H](CCCNC(=N)N)NC2=O)C(=O)NCCCC[C@@H]2NC(=O)[C@@H](Cc3ccccc3)NC(=O)[C@H](CC(=O)O)NC(=O)CNC(=O)[C@H](CCCNC(=N)N)NC2=O)NC(=O)[C@@H](Cc2ccccc2)NC(=O)[C@H](CC(=O)O)NC(=O)CNC1=O [indium-111 labelled]
tissue uptake (female athymic nude mice, liver; intravenous, 3 µCi, 24 h, U-87 MG glioma xenograft): 1.56 ± 0.37 %ID/g
